Published values of several laboratories.
Parts stem from different laboratories: compare values within a part only.

Set 1 — method: RNA Bind-n-Seq; form: RNA; sample: in vitro; tested at: 365 nM; reference: no-protein control; reading: higher = stronger binding
Target: RNA binding protein fox-1 homolog 2, RRM domain, GST-SBP tag (RBFOX2, Homo sapiens, UniProt O43251-10, residues 100-194)
Setting: natural RNA segment, single round, ends assumed
Shared flanks, not repeated: GGGAGUUCUACAGUCCGACGAUC … UGGAAUUCUCGGGUGCCAA
Construct (chain): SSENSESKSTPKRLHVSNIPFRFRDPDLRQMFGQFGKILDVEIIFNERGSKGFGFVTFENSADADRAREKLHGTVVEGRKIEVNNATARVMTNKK
Oligonucleotide | RBNS enrichment (R)
UUGCACACCUGACUCUGUCACUCAAGCCUUUCUCCACCAGGCCCCUCAUCUGAAUACCAAGCACAGAAAUGAGUGGUGUGACUAAUUCCUUACCUCUCCCAAGGAGGGUA | 0.292
UUCUUGGAUUUUUAGGUGUAAUUUGCCAAGGUCUUGGAAUCUUUUUCCCAAGAGCAUGAUAGAAAGAUCCCUGGACUCUGCUGUUACAAGCGUGGACUCUUGUCUCACCU | 3.02
UGCUGGGGACGGUAGUUGCUUUUCUCUCUCCUGAUGCUAGGUUGGGGCCCACCCUGCUCCCUGUUCCUGCUAGGGCCUGCCAGUGCCCCUGAGCUUGCUUUCCACAUUCU | 0.809
UACUGUAAUAUCAAAAUACUAUGUCGAAUUAUUUCAGAUGUUCAGAUUGAAUAGGGUAAAAGAAAGUCUUUAAAUGCUAUCGCAUCCUAGACCCUCUUCCCACCUACUAU | 0.241
GCCAGUUACCAAGAUGGAAUGGAGUUGUGACCCAGUAACUGUGUCACGAGAGACCAUGUAUAUAAAAUAGUCAUGACGACACUGACCUCUUGCACUUGUACAUAACUAUA | 0.305
ACCGCUGUCCUGGCAUUUGUGGCCACUCACUUUGUAGGAAACUCAUCUCCUUCCUGAGGAGCCGGGAGGCUGGACCAGUCCCGUCGUGCAGUCAGGUGGGCGGUGUGUCU | 0.571
AUUUGUCUGUUUCUUAAAUGAUCUCACAGCCAUGGUAAUAAUAGAUGUGUACUCAGAAGAUCAAUAAGGUAAUAUUGGAAUUCAUGUGUUUUUUGCAAUUAAGGCAGGCA | 0.938
UUCUAGGGGCAAAAGCCUUUUGUAGAAACCUGCACACUGCAUUCCAUCUGGGUUUUAAGUUCAGAUGUGAACAUUUUUUAGUGCUUCUUUUUCUUUUACUUAAUGAACAU | 0.311
ACGUAGUCUUUUGUAUUUUCCCUGCCGAAGUGAAUUGUUGGAGAAUGUAAACCGCCUCCACGUGGCGGCAGACUUCCUAAGGCCCCAGCUCGCUGGCCUCGCGCUGGGCG | 0.775
AACACAGCCACACGCGCACACAAGUAUAAGACUUUUUGUAUUACUGCUCCCUACUUAACAUACUUGAAUUCUCAAAUUUCCUUUGGGGUAAAAAAAAAAAAAGGAUUUGA | 0.757
UUGGGUCUCCUCAGGCCCCCGGGCCCACCUGCCCUGAAGGCAGCAGCAAGUUUCUUCUGCAGCCCUGCCGUGCUUGAGGAAGGGCCUGAGGAGGAAGGGACACUCACUCU | 0.438
UUGGGAAUCCACAUUUUUUGGGGGAAUGGAAAAGCUCUGUCUCCCUAACUCAACUGCUUUGCAAGGGGAAAUCAAGCUGGGAGAAUCUUUUUCUGGCCACCUGUGGGGUA | 0.241

Set 2 — method: RNA Bind-n-Seq; form: RNA; sample: in vitro; tested at: not given; reference: input RNA pool; reading: higher = stronger binding
Target: RING finger protein unkempt homolog, zinc fingers 1-6, GST-SBP tag (UNK, Homo sapiens, UniProt Q9C0B0, residues 30-357)
Setting: RNA with constant flanks, human-mouse chimeric sites, ends assumed
Shared flanks, not repeated: GGGAGUUCUACAGUCCGACGAUC … CAACAGAGGAUUGAGCAUCA
Target sequence (chain): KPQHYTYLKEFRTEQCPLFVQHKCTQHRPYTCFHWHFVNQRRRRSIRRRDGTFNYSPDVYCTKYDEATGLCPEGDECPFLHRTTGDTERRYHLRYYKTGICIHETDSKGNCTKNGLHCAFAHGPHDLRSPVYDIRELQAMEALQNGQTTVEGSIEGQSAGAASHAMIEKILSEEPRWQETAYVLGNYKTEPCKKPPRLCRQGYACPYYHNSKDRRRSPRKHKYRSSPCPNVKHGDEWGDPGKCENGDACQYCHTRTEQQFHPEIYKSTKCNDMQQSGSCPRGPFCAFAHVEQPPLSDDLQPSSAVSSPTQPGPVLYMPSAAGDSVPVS
Oligonucleotide | bound/input enrichment [ratio]
CGCCUGGAUGAGGCGGGUGUCACAGAUGAAGUGCUAGAUUCUGCCAUGCAAGCCUUCCUUCUGGAGGUUAUCGUUAAACAUGGGGAGCCGGCACCUUAUUUAUGUAACAAAGAUCCGUUU | 0.0668
UCUUAACUUAUUCAUUUCUUAUUUUUAUAUAGCUAGAUAAAUAUUGUUAGUCUUAGACAAUAGCUCACAUUUUUUGAGAAGCAUGCCCUCCCUAUCCAUUUGUCUUAUAACAUGACCCAG | 56.8
CUCAGAGAUGUGGCAUAUCAGUAUGUGAAAAAGGGGGCUCGUAUAUUUGUGGAAGGGAAAGUGGACUAUGGCGAGUACAUGGAUAAAAAUAAUGUGAGGCGGCAAGCAACAACAAUCAUA | 0.362
ACAGUUAUAUUGUUGAGUUUCAUUUUCAUAUAUUCUUGUAGUGUCUGCUUGCCUGUGACUUCUGGUAAAAUAAGACUAGCCUUUGAAAAUAUUUUAGCAUGGUAUUUAACAUUUUCUAAA | 10.6
UCCCAAAUCCAGCAGCUAGAAGGAGCCUUGAGACAAACACUCCACACGCAGGGAGGGCAAUAGCUUUGUACAUUGGUUUACAUUUUUUCCCCCUGUGGAUUUUUCUAGAGGUCAUAGUGC | 0.86
UGUGCCCCACAAGAUCCUGAAGUUUGAGCAGCUGAAGUUGACUCCCUCUCCUUGCCUGAACCCCCCCCCACUGCCCCCCCAUCCCCCAGUGUCGGCUGAGAUGUUGCCUCUGCACGGUUC | 1.32
GGAUUCCGCUUCCGGUUCCGUUGGGCUCGGUUCUCUCCUGAGCUACGUGUCUCUACGCUCUCAAUCCGCCAUCCAACAAACAUGGAUGAUCAGGUAAAGUUUGUGGAGCCCAGCCGGCAG | 0.0513
UUUCUACUGCAGCAAACGAUGCUAAGAGUGAAGGAUCCUAAGAAGUCCCUGGAUUUUUAUACGAGGGUUCUUGGAAUGACCCUCCUGCAGAAGCUUGACUUCCCUGCUAUGAAGUUCUCG | 0.111
ACAGUUAUAUUGUUGAGUUUCAUUUUCAUAUAUUCUUGUAGUGUCUGCUUGCCUGUGUCUUUUAGUAAAAUAAAAUAAGCCUUUGAAUUAGCAUGCUCAUGGUAUUUAACAUUUUCUAAA | 12.2
ACCUCCCAGGCCUGGGACACCCCACCCCCGCUUUUUGGAAAGUUUUUGGCGUUUCUUUUCCUUCCCCAUACAAAGUGAUUACAGUUUAGAGUCUAUGGGUCUAUCGAAGGGCUUGACGGA | 0.629
UCAGGAACUCAGACAAACAUGAAUGUAAAUGAAGUCAUUAGCAACAGAGCAAUUGAAAUGUUAGGAGGUGAACUUGGCAGCAAGAUACCUGUGCACCCCAAUGAUCAUGUUAACAAAAGC | 0.263

Set 3 — method: protein binding microarray; form: double-stranded DNA, one strand shown; sample: in vitro; tested at: not given; reference: not given; reading: higher = stronger binding
Target: Histone acetyltransferase KAT6A, winged helix 2, GST fusion (KAT6A, Homo sapiens, UniProt Q92794, residues 85-181)
Setting: 8-mer, flanks averaged, mean of 2 arrays, mostly near background
Construct (chain): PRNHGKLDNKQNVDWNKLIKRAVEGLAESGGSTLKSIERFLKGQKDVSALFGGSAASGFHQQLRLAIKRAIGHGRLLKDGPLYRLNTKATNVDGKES
Oligonucleotide | E-score
ATCGCCAC | -0.0824
GTGGTGAA | -0.0131
ACTTATGA | -0.101
CGACATCG | -0.0809
CAAGAGAG | 0.117
CCACCTAG | -0.109
ATATGTCG | 0.0521
ACACGACT | -0.185
GCACAAAC | 0.0946
CAGATATG | -0.103
TTCTCAAA | 0.0897
ACAGACCG | -0.0654
ATTCAGGG | 0.0942
ACTCAGAA | 0.0963
GAATTACC | -0.04
CTACCGCA | 0.0137
CCCGTCAA | -0.0266

Set 4 — method: universal PBM; form: double-stranded DNA, one strand shown; sample: in vitro; tested at: 600 nM; reading: higher = stronger binding
Target: Sal-like protein 4, full length isoform A (SALL4, Homo sapiens, UniProt Q9UJQ4, residues 1-1053)
Sequence of UniProt Q9UJQ4 (whole entry, looked up): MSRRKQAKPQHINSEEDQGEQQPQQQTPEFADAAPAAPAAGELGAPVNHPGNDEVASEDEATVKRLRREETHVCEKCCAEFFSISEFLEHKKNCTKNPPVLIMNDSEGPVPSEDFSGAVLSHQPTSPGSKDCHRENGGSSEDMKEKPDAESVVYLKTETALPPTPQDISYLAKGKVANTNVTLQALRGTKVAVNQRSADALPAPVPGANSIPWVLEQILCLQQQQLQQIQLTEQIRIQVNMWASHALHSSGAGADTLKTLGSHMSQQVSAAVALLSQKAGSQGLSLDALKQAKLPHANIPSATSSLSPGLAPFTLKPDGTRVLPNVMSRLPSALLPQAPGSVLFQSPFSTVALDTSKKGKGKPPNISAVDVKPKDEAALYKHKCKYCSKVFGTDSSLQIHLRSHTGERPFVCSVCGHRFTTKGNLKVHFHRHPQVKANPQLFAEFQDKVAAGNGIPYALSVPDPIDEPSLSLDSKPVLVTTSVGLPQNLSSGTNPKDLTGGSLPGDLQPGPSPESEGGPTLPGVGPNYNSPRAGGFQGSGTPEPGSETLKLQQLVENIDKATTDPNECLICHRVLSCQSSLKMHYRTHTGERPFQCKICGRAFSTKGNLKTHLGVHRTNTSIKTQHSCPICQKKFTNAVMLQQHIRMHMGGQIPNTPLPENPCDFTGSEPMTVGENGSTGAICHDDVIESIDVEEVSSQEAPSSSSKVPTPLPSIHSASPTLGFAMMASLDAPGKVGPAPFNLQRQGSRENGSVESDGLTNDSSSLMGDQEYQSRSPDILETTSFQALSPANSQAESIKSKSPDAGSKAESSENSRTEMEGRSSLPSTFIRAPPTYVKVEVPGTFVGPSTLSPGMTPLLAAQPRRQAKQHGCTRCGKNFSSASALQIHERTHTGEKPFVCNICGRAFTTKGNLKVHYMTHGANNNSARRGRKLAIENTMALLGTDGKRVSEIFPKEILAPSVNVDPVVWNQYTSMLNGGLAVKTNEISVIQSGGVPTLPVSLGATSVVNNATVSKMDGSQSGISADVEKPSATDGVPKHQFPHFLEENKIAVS
Setting: 8-mer, flanks averaged, mean of replicates
Oligonucleotide | E-score
AAGCTCGT | -0.102
GACCACAC | -0.141
TTTAGAAA | 0.292
ATCCGATG | -0.00775
GTTCATAA | 0.372
GAATAGAC | 0.0399
TACGCTCA | 0.123
AACAGCCG | -0.215
ATGCGTCC | -0.217
AAGTTGCT | -0.0341
ACTATGCG | 0.0205
CGTCGAAG | -0.0991
AACCCGCG | -0.323
AGTATGCA | 0.0864
CGCCGCAA | -0.125
CCGGGGGA | -0.307
ATTGGTAG | 0.261
GTACCAGA | -0.016
ATCCCCTC | -0.0718
AACGTTCG | -0.0452
AGGAGAAC | -0.087
AGGCCACG | -0.285
CGTTTCGA | -0.0211
TAGGACCA | -0.0607
ATTGCGGC | -0.0504

Set 5 — method: RNA Bind-n-Seq; form: RNA; sample: in vitro; tested at: 200 nM; setting: whole 134-nt RNA, ends assumed; with: 150 mM LiCl; reference: input library; reading: higher = stronger binding; library: 7-deaza-guanosine replaces G
Target: Fragile X messenger ribonucleoprotein 1, C-terminal low-complexity region (Fmr1, Mus musculus, UniProt P35922)
Shared flanks, not repeated: GGGAGUUCUACAGUCCGACGAUC … UGGAAUUCUCGGGUGUCAAGG
Oligonucleotide | log2 enrichment
AGUCCUGUGCUACACAUCGUAUGUACCGAAUCGGGUUUUUUUGGGAGGGAAAAAGGGAAAGUAUUAUGUUACGCCGUUCGGAUCUGCACU | -1.21
AAGUCCUGUGCUACACAUCGUAUGUACCGAAUCGGUUUUUUUGGUUUGGAAAAAGGAAAGUAUUAUGUUACGCCGUUCGGAUCUGCACUU | -2.72
UCCUGUGCUACACAUCGUAUGUACCGAAUCGGUUUUUUGGGGUUUUUUGGUUUUUUGGGGAAAGUAUUAUGUUACGCCGUUCGGAUCUGC | -1.22
UGGGAGGUGGAUUUUGUUUAUUUUUUUAGCUCAUUUCUAGGGGUGGGAAUUUUUUUUUAAUAUGUGUCAUGAAUAAAGUUGUUUUUGAAA | 0.883
CCUGUGCUACACAUCGUAUGUACCGAAUCGGCCCCCCGGGCCCCCCGGGGCCCCCCGGGGAAAGUAUUAUGUUACGCCGUUCGGAUCUGC | -2.86
UGGCCCUGGUGGCAUGCGGGGAGGAAGAGGUGGCCUCAUGGAUCGUGGUGGUCCCGGUGGAAUGUUCAGAGGUUGCCGUGGUGGAGACAG | -0.428
ACCAUGCAGGUGGGCAUCUUUGGGAAGUGGGGCAAGGGGGGGAUACGGAGGGGGGUAACACUUUGGGAACAGGUGGUCCCAGGUCGUUUC | 0.606
UCCUCAAGUCCUGUGCUACACAUCGUAUGUACCGAAUCGGCGGGCGGCGGGAAAGUAUUAUGUUACGCCGUUCGGAUCUGCACUUCCAGC | 1.08
AAGUCCUGUGCUACACAUCGUAUGUACCGAAUCGGAAAAAGGAAAGGUUUUUUUGGAAAGUAUUAUGUUACGCCGUUCGGAUCUGCACUU | -2.66
UCCUCAAGUCCUGUGCUACACAUCGUAUGUACCGAAUCGGAGGUGGUUUGGAAAGUAUUAUGUUACGCCGUUCGGAUCUGCACUUCCAGC | -1.48
UAACUUUAGAGGAGGAUCUGAUGGAUAUGGCAGGGGACGUGGAUUUGGGGAUGGCUAUAAUGGGUAUGGAGGAGGACCUGGAGGUGGCAA | 0.462

A few entries again (set 3):
Oligonucleotide | E-score
CGACATCG | -0.0809
CAAGAGAG | 0.117
CCACCTAG | -0.109
ATATGTCG | 0.0521
ACACGACT | -0.185
GCACAAAC | 0.0946
CAGATATG | -0.103
